Experimental data pooled from the literature.
Each numbered part is a random draw from the data of one study; scales do not carry over between parts. Substitutions count along the parent as printed.
Chain of UniProt P51955 (whole entry, looked up): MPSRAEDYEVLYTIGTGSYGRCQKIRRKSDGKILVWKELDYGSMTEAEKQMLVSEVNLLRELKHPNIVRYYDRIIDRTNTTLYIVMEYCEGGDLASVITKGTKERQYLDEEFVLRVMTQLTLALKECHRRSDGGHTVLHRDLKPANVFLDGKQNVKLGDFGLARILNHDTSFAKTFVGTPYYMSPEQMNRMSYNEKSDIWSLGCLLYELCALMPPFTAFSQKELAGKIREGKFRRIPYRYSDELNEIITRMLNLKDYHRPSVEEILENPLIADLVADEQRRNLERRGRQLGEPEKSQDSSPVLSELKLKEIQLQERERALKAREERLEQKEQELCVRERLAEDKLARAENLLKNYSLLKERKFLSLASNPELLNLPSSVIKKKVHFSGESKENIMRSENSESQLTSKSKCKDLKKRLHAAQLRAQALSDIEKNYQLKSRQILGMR
Chain of UniProt Q13976 (whole entry, looked up): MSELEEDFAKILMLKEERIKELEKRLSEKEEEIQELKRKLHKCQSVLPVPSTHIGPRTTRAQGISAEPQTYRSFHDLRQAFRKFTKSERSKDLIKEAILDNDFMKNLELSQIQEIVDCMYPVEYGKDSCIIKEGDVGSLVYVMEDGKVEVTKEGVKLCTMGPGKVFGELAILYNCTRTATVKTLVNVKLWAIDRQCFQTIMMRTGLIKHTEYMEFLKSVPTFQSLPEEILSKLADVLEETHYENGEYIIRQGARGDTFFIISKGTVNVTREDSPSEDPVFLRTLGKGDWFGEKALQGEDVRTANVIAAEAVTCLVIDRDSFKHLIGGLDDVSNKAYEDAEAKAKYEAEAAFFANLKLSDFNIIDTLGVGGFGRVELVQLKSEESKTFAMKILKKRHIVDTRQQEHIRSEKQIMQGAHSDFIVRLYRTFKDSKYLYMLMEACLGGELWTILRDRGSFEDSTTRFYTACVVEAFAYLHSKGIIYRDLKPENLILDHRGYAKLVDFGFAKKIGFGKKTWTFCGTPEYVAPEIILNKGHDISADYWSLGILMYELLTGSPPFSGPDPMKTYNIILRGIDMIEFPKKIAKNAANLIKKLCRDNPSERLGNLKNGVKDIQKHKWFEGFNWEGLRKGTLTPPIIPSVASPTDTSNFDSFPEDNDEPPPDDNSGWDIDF
Chain of UniProt Q9UIK4 (whole entry, looked up): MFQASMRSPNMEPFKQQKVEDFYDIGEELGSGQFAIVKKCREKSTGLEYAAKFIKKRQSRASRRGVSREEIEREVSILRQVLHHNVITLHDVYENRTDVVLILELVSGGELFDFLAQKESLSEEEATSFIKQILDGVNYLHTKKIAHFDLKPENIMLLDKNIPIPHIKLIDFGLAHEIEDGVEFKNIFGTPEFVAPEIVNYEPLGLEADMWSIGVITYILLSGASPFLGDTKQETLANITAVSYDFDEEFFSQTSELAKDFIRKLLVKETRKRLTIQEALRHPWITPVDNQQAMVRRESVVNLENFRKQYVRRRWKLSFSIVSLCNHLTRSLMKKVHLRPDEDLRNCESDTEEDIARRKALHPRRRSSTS
Chain of UniProt P11802 (whole entry, looked up): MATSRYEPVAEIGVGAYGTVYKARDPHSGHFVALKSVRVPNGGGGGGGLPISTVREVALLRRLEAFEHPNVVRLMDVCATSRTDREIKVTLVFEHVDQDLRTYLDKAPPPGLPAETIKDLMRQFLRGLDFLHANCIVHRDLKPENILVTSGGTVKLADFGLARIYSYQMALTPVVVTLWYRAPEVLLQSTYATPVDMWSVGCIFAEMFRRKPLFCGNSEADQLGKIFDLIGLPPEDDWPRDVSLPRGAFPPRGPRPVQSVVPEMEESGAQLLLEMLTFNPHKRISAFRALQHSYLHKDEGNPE
Chain of UniProt Q9BWU1 (whole entry, looked up): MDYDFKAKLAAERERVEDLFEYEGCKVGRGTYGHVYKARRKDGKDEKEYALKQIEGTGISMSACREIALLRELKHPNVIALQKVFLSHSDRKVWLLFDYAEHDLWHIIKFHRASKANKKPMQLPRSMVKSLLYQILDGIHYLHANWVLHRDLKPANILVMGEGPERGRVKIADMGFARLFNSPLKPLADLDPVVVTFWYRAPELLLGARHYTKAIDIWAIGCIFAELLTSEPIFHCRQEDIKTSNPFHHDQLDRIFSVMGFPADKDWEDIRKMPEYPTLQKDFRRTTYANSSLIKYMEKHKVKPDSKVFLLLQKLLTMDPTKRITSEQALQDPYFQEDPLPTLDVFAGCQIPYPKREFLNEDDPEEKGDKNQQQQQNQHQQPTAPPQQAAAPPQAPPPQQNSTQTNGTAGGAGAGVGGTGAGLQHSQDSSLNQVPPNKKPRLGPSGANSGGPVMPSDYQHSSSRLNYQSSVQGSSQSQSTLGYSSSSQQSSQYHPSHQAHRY
Chain of UniProt P05771 (whole entry, looked up): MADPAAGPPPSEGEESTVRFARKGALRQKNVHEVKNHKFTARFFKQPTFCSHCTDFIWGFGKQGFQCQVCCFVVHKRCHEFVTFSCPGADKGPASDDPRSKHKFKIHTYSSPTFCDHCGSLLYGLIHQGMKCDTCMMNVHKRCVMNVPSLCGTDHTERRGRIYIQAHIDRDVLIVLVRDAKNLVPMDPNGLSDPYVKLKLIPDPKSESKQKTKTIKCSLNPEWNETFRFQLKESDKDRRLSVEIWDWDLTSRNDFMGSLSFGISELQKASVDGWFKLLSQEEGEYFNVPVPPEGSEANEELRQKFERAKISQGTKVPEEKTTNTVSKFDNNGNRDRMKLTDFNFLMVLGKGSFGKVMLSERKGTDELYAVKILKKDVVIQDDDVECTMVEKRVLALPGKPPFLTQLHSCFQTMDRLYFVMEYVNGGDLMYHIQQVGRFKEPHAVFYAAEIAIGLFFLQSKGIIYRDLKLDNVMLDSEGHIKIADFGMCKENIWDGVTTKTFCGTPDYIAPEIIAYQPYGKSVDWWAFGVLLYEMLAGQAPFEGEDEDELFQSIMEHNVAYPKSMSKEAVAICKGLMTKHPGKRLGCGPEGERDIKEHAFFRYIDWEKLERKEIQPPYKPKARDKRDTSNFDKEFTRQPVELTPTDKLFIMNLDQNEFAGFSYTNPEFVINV
Chain of UniProt Q15831 (whole entry, looked up): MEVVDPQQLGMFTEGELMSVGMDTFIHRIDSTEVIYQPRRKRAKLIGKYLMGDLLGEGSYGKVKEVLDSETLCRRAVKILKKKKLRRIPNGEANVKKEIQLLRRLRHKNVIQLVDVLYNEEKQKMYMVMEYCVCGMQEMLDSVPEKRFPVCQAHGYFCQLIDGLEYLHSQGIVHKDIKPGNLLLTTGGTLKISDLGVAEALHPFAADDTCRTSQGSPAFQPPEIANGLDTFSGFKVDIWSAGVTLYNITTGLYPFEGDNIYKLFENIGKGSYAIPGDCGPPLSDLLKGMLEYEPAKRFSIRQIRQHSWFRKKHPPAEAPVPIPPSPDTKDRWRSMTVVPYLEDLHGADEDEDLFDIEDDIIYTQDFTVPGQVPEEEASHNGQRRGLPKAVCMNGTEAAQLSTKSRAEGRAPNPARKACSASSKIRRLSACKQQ
Chain of UniProt Q14164 (whole entry, looked up): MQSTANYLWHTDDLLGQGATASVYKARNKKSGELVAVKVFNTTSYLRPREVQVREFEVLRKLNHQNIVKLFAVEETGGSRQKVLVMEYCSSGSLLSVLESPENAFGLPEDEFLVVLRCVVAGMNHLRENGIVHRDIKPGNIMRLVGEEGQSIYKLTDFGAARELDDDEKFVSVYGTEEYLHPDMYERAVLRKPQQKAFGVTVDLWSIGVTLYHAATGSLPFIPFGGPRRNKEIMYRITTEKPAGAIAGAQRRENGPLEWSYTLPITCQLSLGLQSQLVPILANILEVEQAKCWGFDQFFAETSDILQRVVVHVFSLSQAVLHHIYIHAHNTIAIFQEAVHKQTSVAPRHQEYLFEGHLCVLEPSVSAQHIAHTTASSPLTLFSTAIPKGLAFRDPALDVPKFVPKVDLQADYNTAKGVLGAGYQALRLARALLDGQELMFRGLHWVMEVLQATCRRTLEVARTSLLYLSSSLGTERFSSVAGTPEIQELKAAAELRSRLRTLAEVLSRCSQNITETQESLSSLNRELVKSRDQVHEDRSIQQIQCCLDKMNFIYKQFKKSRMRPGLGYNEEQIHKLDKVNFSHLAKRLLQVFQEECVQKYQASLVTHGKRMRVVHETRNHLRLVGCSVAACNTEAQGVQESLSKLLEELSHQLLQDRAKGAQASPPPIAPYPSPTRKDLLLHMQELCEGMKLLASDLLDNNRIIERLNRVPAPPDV
Chain of UniProt Q96SB4 (whole entry, looked up): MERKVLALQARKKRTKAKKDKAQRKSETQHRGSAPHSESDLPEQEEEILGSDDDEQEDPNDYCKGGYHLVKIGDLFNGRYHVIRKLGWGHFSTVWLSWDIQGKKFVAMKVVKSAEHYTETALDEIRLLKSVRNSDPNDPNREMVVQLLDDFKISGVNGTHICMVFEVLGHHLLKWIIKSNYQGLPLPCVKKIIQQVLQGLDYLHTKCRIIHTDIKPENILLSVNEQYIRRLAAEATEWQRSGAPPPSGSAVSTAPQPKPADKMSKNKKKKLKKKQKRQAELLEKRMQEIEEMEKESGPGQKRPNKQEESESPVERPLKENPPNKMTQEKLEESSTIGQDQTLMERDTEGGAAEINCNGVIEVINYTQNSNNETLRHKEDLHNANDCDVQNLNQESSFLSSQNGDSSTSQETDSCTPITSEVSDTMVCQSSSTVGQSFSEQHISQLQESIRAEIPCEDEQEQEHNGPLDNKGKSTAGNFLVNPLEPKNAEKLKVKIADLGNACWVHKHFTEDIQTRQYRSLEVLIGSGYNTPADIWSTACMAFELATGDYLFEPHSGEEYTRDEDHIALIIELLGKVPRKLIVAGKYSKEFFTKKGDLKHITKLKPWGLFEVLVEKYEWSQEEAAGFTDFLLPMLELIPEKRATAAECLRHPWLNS

Study 1
Target: PABPC1L2, full length, GST fusion (mouse, UniProt A0ABA7IW68)
Method: RNAcompete
Molecule type: RNA
Matrix: in vitro
Concentration: 20 nM
Notes: 7-mer, probes averaged, single round
Reference: mean of 7-mers
Reading: higher = stronger binding
Target sequence (chain): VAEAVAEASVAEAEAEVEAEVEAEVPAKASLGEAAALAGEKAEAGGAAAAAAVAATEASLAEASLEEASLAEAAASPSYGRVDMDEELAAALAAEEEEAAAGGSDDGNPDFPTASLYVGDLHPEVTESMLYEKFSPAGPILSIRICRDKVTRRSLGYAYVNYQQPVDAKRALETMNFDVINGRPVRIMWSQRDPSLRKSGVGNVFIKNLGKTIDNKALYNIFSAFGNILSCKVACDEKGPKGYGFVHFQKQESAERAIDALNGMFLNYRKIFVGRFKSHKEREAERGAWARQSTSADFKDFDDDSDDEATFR
Sequence	7-mer Z-score
ACCACGA	0.0388
CAUAUUA	-0.237
GAAGUUG	-0.112
UUUAGGG	0.34
UACAGGC	0.195
CGCACGU	-0.253
AAGAGUC	0.287
AAUCAAA	1.14

Study 2
SMILES: CC(=O)N1CCC(c2ccc(C(=O)NC3=NCCN3)cc2C(F)(F)F)CC1
Concentration: 1 µM
target	test	remaining binding
Epidermal growth factor receptor (EGFR, Homo sapiens, UniProt P00533, L858R)	cell-free assay, competition with immobilised ligand	100%
Cyclin-dependent kinase 19 (CDK19, Homo sapiens, UniProt Q9BWU1)	competition binding	100%
SRSF protein kinase 1 (SRPK1, Homo sapiens, UniProt Q96SB4)	cell-free assay, competition with immobilised ligand	100%
Bone morphogenetic protein receptor type-1B (BMPR1B, Homo sapiens, UniProt O00238)	cell-free assay, competition with immobilised ligand	89%

Study 3
SMILES: O=c1cc(N2CCOCC2)oc2c1ccc1ccccc12
Observed: enzyme activity
Action: inhibitor
Concentration: 0.5 µM
Reference: control
target	remaining activity
Calcium/calmodulin-dependent protein kinase type II subunit delta (CAMK2D, Homo sapiens, UniProt Q13557)	99.9%
Tyrosine-protein kinase Lyn, isoform B (LYN, Homo sapiens, UniProt P07948)	104%
Inhibitor of nuclear factor kappa-B kinase subunit beta (IKBKB, Homo sapiens, UniProt O14920)	105%
Cyclin-dependent kinase 4, with cyclin D1 (CDK4, Homo sapiens, UniProt P11802)	95.6%
cGMP-dependent protein kinase 1, isoform beta (PRKG1, Homo sapiens, UniProt Q13976)	84.5%
Serine/threonine-protein kinase STK11 (STK11, Homo sapiens, UniProt Q15831)	104%
STE20/SPS1-related proline-alanine-rich protein kinase (STK39, Homo sapiens, UniProt Q9UEW8)	95.7%
Mitogen-activated protein kinase kinase kinase 3 (MAP3K3, Homo sapiens, UniProt Q99759)	102%
Inhibitor of nuclear factor kappa-B kinase subunit epsilon (IKBKE, Homo sapiens, UniProt Q14164)	101%
Serine/threonine-protein kinase Chk2 (CHEK2, Homo sapiens, UniProt O96017)	104%
Death-associated protein kinase 2 (DAPK2, Homo sapiens, UniProt Q9UIK4)	115%
Protein kinase C beta type, isoform beta-I (PRKCB, Homo sapiens, UniProt P05771)	93.4%
Serine/threonine-protein kinase Nek2 (NEK2, Homo sapiens, UniProt P51955)	94.8%

Study 4
Target: CEP164, C-terminal peptide (human)
Method: DHFR complementation, deep sequencing
Matrix: yeast
Notes: single substitutions, model-inferred values
Reference: wild type
Reading: higher = weaker binding
Parent: PDZK1, PDZ domain 2 (human); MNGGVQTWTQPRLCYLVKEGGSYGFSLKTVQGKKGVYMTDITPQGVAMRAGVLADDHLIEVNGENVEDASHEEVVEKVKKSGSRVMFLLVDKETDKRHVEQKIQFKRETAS; partner HNRVKVYRF
Change	binding free energy change
V75T	1.68 kcal/mol
G45P	1.19 kcal/mol
G24R	1.39 kcal/mol
D40L	0.874 kcal/mol
K92C	-0.0218 kcal/mol
V78A	1.62 kcal/mol
E19W	0.327 kcal/mol
M48Q	-0.215 kcal/mol

A few entries again (study 4):
Change	binding free energy change
V75T	1.68 kcal/mol
G45P	1.19 kcal/mol
G24R	1.39 kcal/mol
D40L	0.874 kcal/mol
K92C	-0.0218 kcal/mol
